Experimental data from different studies.
Compare with care: the assays were run in different laboratories. Several values in a cell are separate wells, animals, samples, runs or records. Numbers after ± are the reported error.

COC1CN([C@H]2CC[C@H]([C@@]3(C)Oc4c(Cl)cc(C(=O)NCc5c(SC)cc(C)[nH]c5=O)c(C)c4O3)CC2)C1 — log2 fold change (RNA-seq, refers to: PPM1E; human, whole blood; dose not given, 24 h; relative to: pretreatment baseline): 3.67
Oc1ccccc1/C=N/Nc1nnc(N/N=C/c2ccccc2O)c2ccccc12 — haemolysis (haemolysis; human; 10 mM, 45 min): 12.9%
[123I]c1ccc2nc(-c3ccc(-n4ccnn4)nc3)cn2c1 — tracer uptake (male Wistar rat, blood; intravenous, 4 MBq, 3 h): 0.084 %ID/g
CCCC[C@H](OC(C)=O)c1ccccc1C(=O)O — AUC(0-inf) (Sprague-Dawley rats, both sexes, whole blood; intravenous, 1.25 mg/kg single dose): 1360 ± 190 ng·h/mL
O=C(Nc1cnccc1-c1ccc([18F])cc1)c1ccnc(NC(=O)C2CC2)c1 — SUV (ex vivo gamma counting; GSK-3β transgenic mice, late-stage, hippocampus; intravenous, 1.26 MBq/animal, 120 min, mean, no P-gp inhibitor): 0.12
COc1cccc(OC)c1-c1cc(C(=O)NC2(C(=O)O)C3CC4CC(C3)CC2C4)nn1-c1ccc(C(=O)N(C)CCOCCOCCN(C)C(=O)[C@H](CCCCNC(=O)[C@H](CC(C)C)NC(=O)C2OC2C(=O)O)NC(=O)CN2CCN(CC(=O)[O-])CCN(CC(=O)[O-])CCN(CC(=O)[O-])CC2)cc1C(C)C.[177Lu+3] (mixture of isomers) — tumour-to-brain ratio (mouse, HT-29 xenograft; 4 h post injection, biodistribution; relative to: tumour over brain uptake): 26
CCCCN1C(=O)c2cccc3c(NCCCCN4CCOCC4)ccc(c23)C1=O — molar extinction coefficient (ethylene glycol): 8800 M⁻¹ cm⁻¹
CC(=O)N([O-])CCCCCNC(=O)CCC(=O)N([O-])CCCCCNC(=O)CCC(=O)N([O-])CCCCCN.[89Zr+4] — intact complex (radio-TLC; aqueous buffer; 3 d, pH 7.2, 37 °C, 89Zr-labelled complex, together with: CaCl2 10-fold excess): 99 ± 1%
C=CC(=O)Nc1cccc(Cn2ncc3cnc(Nc4cnn(CCOC)c4)nc32)c1 — remaining compound (dog, Beagle, both sexes, whole blood; 5 µM, 60 min): 64.6%
C=C(NC(=O)c1csc(-c2nc3c(cc2O)-c2nc(cs2)C(=O)NC(C(C)O)C(=O)NC(=C(C)OC)c2nc(cs2)C(=O)NC2c4nc(cs4)C(=O)NC(COC(=O)c4c5c6c(cccc6n4O)COC(=O)C(OC4CC(C)(O)C(N(C)C)C(C)O4)C2OC5)c2nc-3cs2)n1)C(N)=O (stereo not drawn) — AUC(0-t) (ICR mice, Streptococcus pneumoniae ATCC 49169 infected, immunocompromised, blood; intravenous, 2 mg/kg/day once daily): 51.6 ng·h/mL
CCCCN1C(=O)c2cccc3c(NCCCCCN4CCOCC4)ccc(c23)C1=O — molar extinction coefficient (acetonitrile): 5820 M⁻¹ cm⁻¹
CC(C)[C@H](NC(=O)[C@H](Cc1c[nH]c2ccccc12)NC(=O)[C@H](CCCNC(=N)N)NC(=O)[C@H](CCCNC(=N)N)NC(=O)[C@@H](NC(=O)[C@@H](NC(=O)[C@H](CCCNC(=N)N)NC(=O)[C@@H](NC(=O)[C@@H](NC(=O)[C@H](CCCNC(=N)N)NC(=O)[C@H](CCCNC(=N)N)NC(=O)[C@@H](NC(=O)[C@H](Cc1c[nH]c2ccccc12)NC(=O)[C@H](CCCNC(=N)N)NC(=O)[C@H](CCCNC(=N)N)NC(=O)[C@@H](NC(=O)[C@H](CCCNC(=N)N)NC(=O)[C@H](CCCNC(=N)N)NC(=O)[C@@H](NC(=O)[C@H](Cc1c[nH]c2ccccc12)NC(=O)[C@H](CCCNC(=N)N)NC(=O)[C@@H](N)CCCNC(=N)N)C(C)C)C(C)C)C(C)C)C(C)C)C(C)C)C(C)C)C(C)C)C(=O)N[C@@H](CCCNC(=N)N)C(=O)N[C@@H](CCCNC(=N)N)C(=O)O — glucose (CD1 mouse, plasma; intravenous, 15 mg/kg, 16 h, [14C]-labelled compound): 160 mg/dL
CC(C)C[C@H](NC(=O)[C@H](CCCN)NC(=O)CNC(=O)[C@@H](NC(=O)[C@H](C)NC(=O)[C@@H]1CSCSC[C@H](NC(=O)CC[C@H](N)C(=O)O)C(=O)N[C@@H](CC(N)=O)C(=O)N[C@@H]([C@@H](C)O)C(=O)N[C@@H](C)C(=O)N[C@@H]([C@@H](C)O)C(=O)N1)[C@@H](C)O)C(=O)N[C@@H](C)C(=O)N[C@@H](CCC(=O)O)C(=O)N[C@@](C)(Cc1ccccc1)C(=O)N[C@@H](CC(C)C)C(=O)N[C@H](C(=O)N[C@@H](CCCNC(=N)N)C(=O)N[C@@H](CO)C(=O)N[C@@H](CO)C(=O)N[C@@H](CC(N)=O)C(=O)N(C)[C@@H](CC(N)=O)C(=O)N[C@@H](Cc1ccccc1)C(=O)NCC(=O)N1CCC[C@H]1C(=O)N[C@@H](CCCCNC(=O)CC[C@H](NC(=O)CC[C@H](NC(=O)CCCCCCCCCCCCCCCCCCC(=O)O)C(=O)O)C(=O)O)C(=O)N[C@@H](CC(C)C)C(=O)N1CCC[C@H]1C(=O)N1CCC[C@H]1C(=O)N[C@H](C(=O)N[C@@H](CCC(=O)O)C(=O)N[C@H](C(=O)NCC(=O)N[C@@H](CO)C(=O)N[C@@H](CC(N)=O)C(=O)N[C@H](C(=O)N[C@@H](Cc1ccc(O)cc1)C(N)=O)[C@@H](C)O)C(C)C)[C@@H](C)O)C(C)C — AUC(0-tlast) (healthy human, plasma; subcutaneous, 4 mg single dose, geometric LS mean): 209000 ng·h/mL
C=CC(=O)Nc1cc(Nc2nccc(-c3cn(C)c4ccccc34)n2)c(OC)cc1N(C)CCNC — recovery (storage stability; human plasma; 2 h, -80 °C, MQC level): 101%
CCCCN1C(=O)c2cccc3c(NCCCN4CCOCC4)ccc(c23)C1=O — molar extinction coefficient (MeCN): 5300 M⁻¹ cm⁻¹
C=C[C@]1(C)C[C@@H](OC(=O)CSc2ccc(NC(=O)c3ccco3)cc2)[C@]2(C)[C@H](C)CC[C@]3(CCC(=O)[C@H]32)[C@@H](C)[C@@H]1O — Tmax (M. gallisepticum-infected chickens, plasma; intramuscular, 5 mg/kg single dose): 22.8 min
CCc1occc(=O)c1[O-].[Cl-].[W+4].c1cc[cH-]c1.c1cc[cH-]c1 — oxidation peak potential (cyclic voltammetry; acetonitrile; relative to: Ag/AgCl): 0.67 to 0.73 V
COCC1CN(C2CCN(c3cc(OC)c(Nc4ncc(Br)c(Nc5ccc6c(c5P(C)(C)=O)OCCO6)n4)cc3C)CC2)C1 — adverse events (first-in-human trial; human; oral, 60 mg once daily; any treatment-related): 57.1%
C=CC(=O)Nc1cc(Nc2nccc(-c3c[nH]c4ccccc34)n2)c(OC)cc1N(C)CCN(C)C — recovery (storage stability; human plasma; 5 h, on ice, low QC level): 96.8%
CCc1cnc(NC(=O)c2cc(S(=O)(=O)N3CCOCC3)ccc2N(C)C2CCCC2)s1 — total protein (mouse; 10 mg/kg, 3 doses): 5.5 g/dL
CCC1=[N+]2N=C(/C=C/c3ccccc3)C(=O)O[B-]2(c2ccccc2)Oc2cc(N(CC)CC)ccc21 (stereo not drawn) — molar absorption coefficient (toluene): 58000 M⁻¹ cm⁻¹
CCC(C(=O)Nc1ccc(C(N)=O)c(F)c1)n1cc(OC)c(-c2cc(Cl)ccc2-n2cc(C(F)(F)F)nn2)cc1=O (stereo not drawn) — mild drug-related adverse events (healthy male humans; 50 mg, maximum intensity): 7.1%
CC[C@H](C)[C@@H]1NC(=O)[C@H](Cc2ccc(O)cc2)NC(=O)CCCSC[C@@H](C(=O)N(CC(=O)N[C@@H](CC(C)C)C(=O)NCC(N)=O)Cc2ccc(F)cc2)NC(=O)[C@H](CC(N)=O)NC(=O)[C@H](CCC(N)=O)NC1=O — tmax (healthy women, plasma; intranasal): ~15 min
Cc1cc(-c2ccc(C(=O)[C@@H]3CCCC[C@H]3C(=O)Nc3cnn4c3C(=O)NCC4)cc2)[nH]n1 — recovery of radioactivity (human, faeces; oral, 200 mg; relative to: dose): 75.8% and 82.1% and 81.3% and 76.8% and 74.4% and 85.4%
N[C@@H](CCC(=O)N[C@H]1CSSC[C@@H](C(=O)NCC(=O)O)NC(=O)CC[C@@H](C(=O)O)NC1=O)C(=O)O — urinary concentration (LC-HRMS; human, urine; concentration not given): 7.7 µM
CC[C@H](C)[C@H](NC(=O)CNC(=O)[C@H](C)NC(=O)[C@H](CC(=O)O)NC(=O)[C@H](CO)NC(=O)[C@H](C)NC(=O)[C@H](CC(C)C)NC(=O)[C@H](CCCCN)NC(=O)[C@H](CCCCN)NC(=O)[C@H](CCSC)NC(=O)[C@H](CC(N)=O)NC(=O)[C@H](Cc1ccccc1)NC(=O)[C@H](CC(=O)O)NC(=O)[C@@H](N)CCSC)C(=O)N[C@@H](Cc1c[nH]c2ccccc12)C(=O)N[C@@H](Cc1ccccc1)C(=O)N[C@H](C(=O)N[C@@H](CCCNC(=N)N)C(=O)N[C@@H](C)C(=O)N[C@H](C(=O)N[C@@H](CCC(N)=O)C(=O)N[C@@H](Cc1ccccc1)C(=O)N[C@H](C(=O)N[C@@H](CCC(=O)O)C(=O)N[C@@H](CCC(=O)O)C(=O)N[C@@H](CCCCN)C(=O)N[C@@H](Cc1ccccc1)C(=O)NCC(=O)N[C@@H](CCC(N)=O)C(=O)N[C@@H](C)C(N)=O)[C@@H](C)O)C(C)C)[C@@H](C)O — fractional helicity (circular dichroism; phosphate buffer; pH 7.4): 0.83%
C[C@@]1(c2nc(-c3ccc(F)c4cn[nH]c34)no2)CCCN(C(=O)c2ccc(F)nc2)C1 — conditioned place preference score (mouse; intraperitoneal, 20 mg/kg; direction not given): 20.1 and 99.7 and 45.9 and 5.34 and 57.9
CCC(=O)N(C)c1ccc(Cl)c(Cl)c1 — plasma concentration (female C57BL/6 mice; intravenous, 2 mg/kg, 0.083 h): 771 ng/mL
Cc1nc(N)nc2c1C(=O)N[C@@H](c1ccc(F)cc1-c1cccc(O[11CH3])n1)C2 — tracer uptake (ex vivo biodistribution; healthy mice, blood; 60 min post-injection, baseline, vehicle pre-treatment): 5.3 ± 3 %ID
Cc1nn(-c2nc3c(F)cc(F)cc3s2)c(O)c1C(c1ccc(C(F)(F)F)cc1)c1c(C)nn(-c2nc3c(F)cc(F)cc3s2)c1O — AUC(all) (ICR mouse, plasma; intravenous, 5 mg/kg): 87800 ng·h/mL and 46800 ng·h/mL and 36000 ng·h/mL

Some of these lines once more:
C=CC(=O)Nc1cccc(Cn2ncc3cnc(Nc4cnn(CCOC)c4)nc32)c1 — remaining compound (dog, Beagle, both sexes, whole blood; 5 µM, 60 min): 64.6%
C=C(NC(=O)c1csc(-c2nc3c(cc2O)-c2nc(cs2)C(=O)NC(C(C)O)C(=O)NC(=C(C)OC)c2nc(cs2)C(=O)NC2c4nc(cs4)C(=O)NC(COC(=O)c4c5c6c(cccc6n4O)COC(=O)C(OC4CC(C)(O)C(N(C)C)C(C)O4)C2OC5)c2nc-3cs2)n1)C(N)=O (stereo not drawn) — AUC(0-t) (ICR mice, Streptococcus pneumoniae ATCC 49169 infected, immunocompromised, blood; intravenous, 2 mg/kg/day once daily): 51.6 ng·h/mL
